Published values collected from several papers.
Lines come from different studies, so protocols differ. ± gives the spread as reported.
Medium: plasma

For `O=C(O)/C=C/c1cccc(S(=O)(=O)Nc2ccccc2)c1`, the AUC(0-inf) was 12.3 µg·h/mL (patients with severe liver dysfunction; intravenous, 400 mg/m^2 belinostat, single 30 min infusion, cycle 1 day -7, mean).
`Cc1ccccc1-c1cc(N2CC[N+](C)([O-])CC2)ncc1N(C)C(=O)C(C)(C)c1cc(C(F)(F)F)cc(C(F)(F)F)c1` gave an AUC(0-inf) of 1.71 to 2.25 µg·h/mL (healthy volunteers; oral, dose not given).
The AUC(0-inf) of `CONC(=O)/C=C/c1cccc(S(=O)(=O)Nc2ccccc2)c1` is reported as 5.9 µg·h/mL (patients with normal liver function; intravenous, 400 mg/m^2 belinostat, single 30 min infusion, cycle 1 day -7, mean).
With `COc1cc(C)c(Cc2ccc(O)cc2)cc1[C@@H]1S[C@H](CO)[C@@H](O)[C@H](O)[C@H]1O` the AUC(0-inf) was 0.0627 ± 0.0105 µg·h/mL (Japanese T2DM patients; 1 mg luseogliflozin, day 1, once daily).
For `CN1CCN(c2cc(-c3ccccc3CO)c(N(C)C(=O)C(C)(C)c3cc(C(F)(F)F)cc(C(F)(F)F)c3)cn2)CC1`, the AUC(0-inf) was 4.05 to 5.84 µg·h/mL (healthy volunteers; oral, dose not given).
For `CCCC[C@H](NC(=O)[C@H](CC(C)C)N(C)C(=O)CNC(=O)[C@@H](NC(=O)[C@H](Cc1ccccc1)NC(=O)[C@H](CCCCN)NC(=O)[C@@H](N)CC(=O)O)C(C)C)C(N)=O`, the AUC(0-inf) was 0.0298 µg·h/mL (Göttingen minipig; subcutaneous, 100 µg/kg).
`CC(C)(Sc1ccncc1-c1ccc(C#N)c2ccccc12)C(=O)OC1OC(C(=O)O)C(O)C(O)C1O` (stereo not drawn) gave an AUC(0-inf) of 0.969 µg·h/mL (oral, 15 mg, severe renal impairment, fasted).
`NC(=O)/C=C/c1cccc(S(=O)(=O)Nc2ccccc2)c1` has an AUC(0-inf) of 14 µg·h/mL (patients with mild liver dysfunction; intravenous, 400 mg/m^2 belinostat, single 30 min infusion, cycle 1 day -7, mean).
`CC(C)(Sc1cc[n+]([O-])cc1-c1ccc(C#N)c2ccccc12)C(=O)OC1OC(C(=O)O)C(O)C(O)C1O` (stereo not drawn) gave an AUC(0-inf) of 0.339 µg·h/mL (oral, 15 mg, mild renal impairment, fasted).
`Cn1cc(C(N)=O)c(NC2C3CC4CC2CC(O)(C4)C3)c2ccnc1-2` (stereo not drawn) gave an AUC(0-inf) of 0.572 µg·h/mL (Japanese adults, mild hepatic impairment; oral, 150 mg single dose, fasting, Child-Pugh A).
The AUC(0-inf) of `Cc1ccccc1-c1cc(N2CCNCC2)ncc1N(C)C(=O)C(C)(C)c1cc(C(F)(F)F)cc(C(F)(F)F)c1` is reported as 4.2 to 5.99 µg·h/mL (cancer patients; oral, dose not given, netupitant-palonosetron single dose, range of means).
`Cn1cc(C(N)=O)c(NC2C3CC4CC2CC(OS(=O)(=O)O)(C4)C3)c2ccnc1-2` (stereo not drawn) gave an AUC(0-inf) of 0.372 µg·h/mL (Japanese adults, normal hepatic function; oral, 150 mg single dose, fasting).
For `O=C(O)c1cccc(S(=O)(=O)Nc2ccccc2)c1`, the AUC(0-inf) was 16.2 µg·h/mL (patients with severe liver dysfunction; intravenous, 400 mg/m^2 belinostat, single 30 min infusion, cycle 1 day -7, mean).
`CC(C)[C@H](NC(=O)CNC(=O)[C@H](CCC(N)=O)NC(=O)[C@H](C)N)C(=O)O` gave an AUC(0-inf) of 6.52 µg·h/mL (healthy volunteers, LPS endotoxaemia; intravenous, 45 mg/kg/h, 2 h infusion, geometric mean, added: LPS 2 ng/kg).
For `NC(=O)c1cnc2[nH]ccc2c1NC1C2CC3CC1CC(OS(=O)(=O)O)(C3)C2` (stereo not drawn), the AUC(0-inf) was 2.71 µg·h/mL (Japanese adults, normal hepatic function; oral, 150 mg single dose, fasting).

Repeated from above:
`Cn1cc(C(N)=O)c(NC2C3CC4CC2CC(O)(C4)C3)c2ccnc1-2` (stereo not drawn) gave an AUC(0-inf) of 0.572 µg·h/mL (Japanese adults, mild hepatic impairment; oral, 150 mg single dose, fasting, Child-Pugh A).
For `O=C(O)c1cccc(S(=O)(=O)Nc2ccccc2)c1`, the AUC(0-inf) was 16.2 µg·h/mL (patients with severe liver dysfunction; intravenous, 400 mg/m^2 belinostat, single 30 min infusion, cycle 1 day -7, mean).
